Measured values of several laboratories.
Parts stem from different laboratories: compare values within a part only.

Block 1 — method: Sort-seq; refers to: YFP reporter; matrix: E. coli; setting: PhoQ-PhoP variant library; added: 10 µM Mg2+; reference: high Mg2+ state; direction: higher = stronger signaling
Substance: PhoQ, residues 284 288 289 292 302 303 QWQEDG
| target | fold induction |
| --- | --- |
| PhoP, residues 12 14 15 18 19 LHTVL (Escherichia coli, UniProt P23836) | 24.7 |
| PhoP, residues 12 14 15 18 19 NQCAL (Escherichia coli, UniProt P23836) | 15.7 |
| PhoP, residues 12 14 15 18 19 TQAML (Escherichia coli, UniProt P23836) | 8.52 |

Block 2 — method: universal PBM; molecule type: double-stranded DNA, one strand shown; matrix: in vitro; concentration: 600 nM; direction: higher = stronger binding
Target: Sal-like protein 4, full length isoform A (SALL4, Homo sapiens, UniProt Q9UJQ4, residues 1-1053)
UniProt Q9UJQ4, sequence (whole entry, looked up): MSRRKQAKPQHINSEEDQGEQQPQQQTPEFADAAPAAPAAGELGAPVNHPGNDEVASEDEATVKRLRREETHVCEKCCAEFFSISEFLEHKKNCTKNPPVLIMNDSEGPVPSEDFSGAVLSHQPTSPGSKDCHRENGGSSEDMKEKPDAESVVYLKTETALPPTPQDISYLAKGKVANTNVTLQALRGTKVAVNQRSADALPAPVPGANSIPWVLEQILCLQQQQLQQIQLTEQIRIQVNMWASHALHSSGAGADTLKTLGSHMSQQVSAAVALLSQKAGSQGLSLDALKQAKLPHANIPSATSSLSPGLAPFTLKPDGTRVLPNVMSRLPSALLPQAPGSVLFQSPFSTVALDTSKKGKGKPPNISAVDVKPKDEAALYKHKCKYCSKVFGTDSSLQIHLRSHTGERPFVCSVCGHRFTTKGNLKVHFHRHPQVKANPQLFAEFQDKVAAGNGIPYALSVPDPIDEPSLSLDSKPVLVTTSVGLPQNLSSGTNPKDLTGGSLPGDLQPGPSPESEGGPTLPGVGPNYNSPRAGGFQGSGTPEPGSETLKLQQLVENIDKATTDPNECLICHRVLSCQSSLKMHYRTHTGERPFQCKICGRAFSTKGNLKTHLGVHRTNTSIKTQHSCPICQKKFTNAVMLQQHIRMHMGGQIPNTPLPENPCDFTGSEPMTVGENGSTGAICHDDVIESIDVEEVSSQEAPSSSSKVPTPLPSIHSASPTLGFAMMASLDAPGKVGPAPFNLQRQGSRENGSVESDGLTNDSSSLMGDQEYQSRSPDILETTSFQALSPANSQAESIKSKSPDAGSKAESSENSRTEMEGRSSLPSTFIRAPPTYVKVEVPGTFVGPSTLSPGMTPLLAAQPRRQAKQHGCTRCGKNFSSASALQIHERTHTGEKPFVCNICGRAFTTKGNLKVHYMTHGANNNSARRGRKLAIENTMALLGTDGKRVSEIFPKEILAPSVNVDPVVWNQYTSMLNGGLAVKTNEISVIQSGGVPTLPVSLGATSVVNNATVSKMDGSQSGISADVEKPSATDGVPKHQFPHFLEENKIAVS
Setting: 8-mer, flanks averaged, mean of replicates
| Sequence | E-score |
| --- | --- |
| AGATGCCG | -0.23 |
| CCCTAGCC | -0.242 |
| ACGCCCAC | -0.198 |
| TCATACAA | 0.267 |
| CACAATGC | -0.0802 |

Block 3 — method: RNA Bind-n-Seq; molecule type: RNA; matrix: in vitro; concentration: 365 nM; reference: no-protein control; direction: higher = stronger binding
Target: RNA binding protein fox-1 homolog 2, RRM domain, GST-SBP tag (RBFOX2, Homo sapiens, UniProt O43251-10, residues 100-194)
Setting: natural RNA segment, single round, ends assumed
Constant ends, left off below: GGGAGUUCUACAGUCCGACGAUC … UGGAAUUCUCGGGUGCCAA
Residues (chain): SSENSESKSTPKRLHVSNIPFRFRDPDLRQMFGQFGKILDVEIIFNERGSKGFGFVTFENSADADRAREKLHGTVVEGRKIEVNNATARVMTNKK
| Sequence | RBNS enrichment (R) |
| --- | --- |
| CGUCAGCUCUUCCAGGACCUGGAGCGCUACGUGCAGGACGCCGAUGUGCGCUGGGAGUACUGCGUGCGCGCCAAGCGCGGCCAGACCGACACCUCGCUGCCAGGUUGUUU | 0.42 |
| UGGAAUAAUGGGCCAAACAUCUGGUCUUGCAUUGAAAUAGCAUUUCUUUGGGAUUGUGAAUAGAAUGUAGCAAAACCAGAUUCCAGUGUACUAGUCAUGGAUCUUUCUCU | 0.25 |
| AAAAGGCUUGUAUGUGUUAUCAUUUAAGGUCACUGUUCCCAAUUAAAAGCCUUCAACCAUGAUUUUCAUCAUUGGAAAUAGAAUUGAAUGGCCACCCUGUGUUGUGGGAA | 0.722 |
| CUCAUGCAAAGUAGGGAACACCUUUUGAGCAUCUUUGAAUUUGACAAAUGGUGCUGUUGCAAACACUUUUUUUUUGAGAUGAAGUCUCGCGGUUGUCACCCGGGCUGGAG | 1.19 |
| UUUCUUUUCAGUACAAGUAUUUGUAGUUUGUAAUGAAUGUGCCACAUACAGGUUUUGUAGCUUAUUAUUAUGGAACAGACUGAAGAUCUGCAGUACGAAUUUAAUACUUA | 0.399 |
| GUGUCUGUUCUUGCCCUUAAUAUUAUAAGUGGCAUAAAUGUCACACCAUUGCAAAGAACGGGAGAAAUAGUCUAAAAAGGUGGGGCUUUGGCAUUCCUACCCUACAUCCU | 0.401 |

Block 4 — method: protein-binding microarray; molecule type: double-stranded DNA, one strand shown; matrix: in vitro; concentration: 250 nM; setting: 60-bp whole probe; added: salmon DNA 0.4 mg/ml; reference: random background probes; direction: higher = stronger binding; constant ends, left off below: GCCTAGCAC … GTCTTGATTCGCTTGACGCTGCTG
Target: Interferon regulatory factor 5, full length, phosphomimetic (IRF5, Homo sapiens, UniProt Q13568-2, residues 1-514, K96S/S451D/S453D/S456D/S462D)
| Sequence | log fluorescence |
| --- | --- |
| TTAGATCTCAGCCTGGATTAGTGCTAG | -0.179 z-score |
| GTTACTTTCTACTTCTCTTTGTGCTAG | 5.43 z-score |
| ACCACTTTCCATTTCTGTTTGTGCTAG | 3.88 z-score |
| GACGGTCTCCTTATCCCGACGTGCTAG | -0.0474 z-score |
| TTCTGTATGGGCATTTTTCTAGTGCTA | 0.37 z-score |
